Experimental data of several laboratories.
Numbered parts are unrelated; each lists some results of a single study. Positions count from the first letter of the parent shown.

Sample 1 — target: CCND1, cyclin fold, Cln2 fusion (human); technique: yeast growth competition, sequencing; medium: yeast; notes: weak parent motif; baseline: not given; direction: higher = stronger binding
Starting sequence: ASZ1 docking peptide (human); GFGFLLFICKLTF; partner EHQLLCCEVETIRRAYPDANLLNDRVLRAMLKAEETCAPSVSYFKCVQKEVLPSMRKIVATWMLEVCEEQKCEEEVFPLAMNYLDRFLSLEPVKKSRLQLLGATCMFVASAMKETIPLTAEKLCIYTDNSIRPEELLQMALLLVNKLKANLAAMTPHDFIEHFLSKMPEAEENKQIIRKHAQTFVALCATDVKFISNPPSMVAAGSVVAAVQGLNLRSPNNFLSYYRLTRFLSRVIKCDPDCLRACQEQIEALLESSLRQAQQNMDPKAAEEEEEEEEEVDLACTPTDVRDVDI
Variant	normalised enrichment score
I8A	-0.0475
C9A	0.318
F13A	0.00373
F7A	-0.121
L11A	0.164
F2A	-0.252

Sample 2 — technique: DHFR PCA, deep sequencing; medium: yeast; added: (+)-ABA 0.11 µM; baseline: wild-type fitted maximum; direction: higher = stronger binding
Target: ABI1, truncated, D143A, DHFR fusion (Arabidopsis thaliana)
Notes: methotrexate growth selection, single substitutions
Starting sequence: PYL1, truncated, DHFR fusion (Arabidopsis thaliana); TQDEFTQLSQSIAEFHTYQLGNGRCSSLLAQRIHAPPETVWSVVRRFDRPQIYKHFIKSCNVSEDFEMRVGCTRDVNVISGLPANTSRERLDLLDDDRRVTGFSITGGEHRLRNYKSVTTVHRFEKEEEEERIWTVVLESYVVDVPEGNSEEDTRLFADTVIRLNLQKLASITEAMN
Variant	relative binding score [%]
V40T	-0.586
A35P	-2.95
P37Y	1.29
D96P	-3.06
T6F	42.2
C25A	33.5
N85C	55.2
T119R	-4.87
F5I	31.5
Q2M	55.8

Sample 3 — technique: RNA Bind-n-Seq; molecule type: RNA; medium: in vitro; tested at: 365 nM; baseline: no-protein control; direction: higher = stronger binding
Target: RNA binding protein fox-1 homolog 2, RRM domain, GST-SBP tag (RBFOX2, Homo sapiens, UniProt O43251-10, residues 100-194)
Notes: natural RNA segment, single round, ends assumed
Constant ends, left off below: GGGAGUUCUACAGUCCGACGAUC … UGGAAUUCUCGGGUGCCAA
Residues (chain): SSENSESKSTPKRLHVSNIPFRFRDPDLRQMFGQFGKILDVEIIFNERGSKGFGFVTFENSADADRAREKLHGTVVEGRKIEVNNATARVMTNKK
Oligonucleotide	RBNS enrichment (R)
AGCCAGCCUGGGCCCAAUGAAACCUGGUCUCAAGAGAACAAAACCAAACCAAUCAAAUAUGGUCCUAAGAAUGCAGGGUGGGAUUAGAGCCAGUGUCUCUGCUUGAGAUG	1.42
UGCGGAACCAACACACCCUGCUGCCAGCUCCUCCAGCCACAGGCAUGGGACACUAAGCCGGGUCAUGGAGCUCAAGGGACUCUGUGAGAGAUGGGACAGGUCCUCCAGGA	0.273
AGUGUUCCUCGUGGAGUCAGCCUGAGGUAGAUUUCCAGGAAAGCCUUUUCCUCGUUACCAGUGUGUGAUGUCACAACUGAAACUUGUGUUAGUAACGUCUAAGGCCAUGU	0.549
GGUGGCAUGUGCCAGUAGUCCCAGCUACUCGAAAGGCUAAGACUGGAGGAUCGCUUGAGCCAAUGAGUUGGAGGCUGCAGUGAGCUAUAAUCACGCCACUGCACUCCAGC	0.544
CUGGCACUCCUUGCUUUCAUCACCUUGACUUCUUCCUCUCAGUAGUGCCAAUCUCUCUAGGACCCUUAUAGCUCCCCACUCCCCCCAAAUCAAGUCCCAUGCUCCAAUCU	1.43
GUCUUGUGGGGGAAUUGGAUUCCAUUUUAGUUAUUUAAUACCUCACUCCCACCCACCUGCAUACUGCUUGUGUGUCCCGGCCUGUCCCGCAAGCCUAGUUGUGCUUUUUG	1.98
UGAUUUAAUAUUUUCACAGACUAGGCCAUGUGCAAAAUUAGAGUUCCCUGUGUAACCCCAGCCAGCAGGCCCAGCAUGGCUGCGUGCACUCAUUGCAGUCUUGUUGAACC	0.466
UGAAUGCUGCUGCUGAGACUGAAGACCAGUAUUUCAGAACUUUGAGAAUUGGAGAGCAGGCACAUCAACUGAUCUCAUUUCUAGAGAGCCCCUGACAAUCCUGAGGCUUC	0.568

Sample 4 — technique: protein binding microarray; molecule type: double-stranded DNA, one strand shown; medium: in vitro; tested at: not given; baseline: not given; direction: higher = stronger binding
Target: Histone acetyltransferase KAT6A, both winged helices, GST fusion (KAT6A, Homo sapiens, UniProt Q92794, residues 1-181)
Notes: 8-mer, flanks averaged, mean of 2 arrays, mostly near background
Construct (chain): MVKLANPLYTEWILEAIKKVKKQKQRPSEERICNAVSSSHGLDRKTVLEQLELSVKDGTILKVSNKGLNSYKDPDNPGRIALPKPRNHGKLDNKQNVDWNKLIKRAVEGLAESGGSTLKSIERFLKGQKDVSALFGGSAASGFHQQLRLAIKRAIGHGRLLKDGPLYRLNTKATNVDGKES
Oligonucleotide	E-score
ACTACTCT	-0.039
GCCAGTAC	-0.155
GAAGATGA	-0.116
AATCGGGA	0.0693
AACCGGGT	0.206
GGCGACCC	0.0809
CAGTTTCG	-0.0475
AGTCAAGA	-0.138
AGAATCGA	-0.168
CTTGCTTA	-0.114
ATAAATAT	-0.105
CGGCTGGA	0.137
ACCGCGGT	0.381
GCCACCCA	-0.211
GGGTCGTA	0.0407
AGTCCTTA	-0.137
ACATTCTA	-0.141
ACCTTAAC	0.0788

Sample 5 — technique: RNA Bind-n-Seq; molecule type: RNA; medium: in vitro; tested at: 1 µM; notes: whole 134-nt RNA, ends assumed; added: 150 mM KCl; baseline: input library; direction: higher = stronger binding
Target: Ras GTPase-activating protein-binding protein 1, C-terminal RGG region (G3BP1, Homo sapiens, UniProt Q13283)
Chain of UniProt Q13283 (whole entry, looked up): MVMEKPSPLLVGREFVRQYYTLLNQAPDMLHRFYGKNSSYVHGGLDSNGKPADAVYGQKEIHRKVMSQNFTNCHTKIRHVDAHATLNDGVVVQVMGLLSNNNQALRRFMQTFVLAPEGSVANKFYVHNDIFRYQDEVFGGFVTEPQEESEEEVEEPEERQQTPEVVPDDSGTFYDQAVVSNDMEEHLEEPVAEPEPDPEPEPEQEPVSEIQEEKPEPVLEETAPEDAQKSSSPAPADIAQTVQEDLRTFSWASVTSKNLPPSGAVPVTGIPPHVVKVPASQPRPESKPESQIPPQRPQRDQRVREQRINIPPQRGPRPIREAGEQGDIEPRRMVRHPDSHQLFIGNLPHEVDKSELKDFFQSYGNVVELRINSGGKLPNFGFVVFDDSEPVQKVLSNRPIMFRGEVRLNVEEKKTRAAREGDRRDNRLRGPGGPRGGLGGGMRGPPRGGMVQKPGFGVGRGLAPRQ
Constant ends, left off below: GGGAGUUCUACAGUCCGACGAUC … UGGAAUUCUCGGGUGUCAAGG
Oligonucleotide	log2 enrichment
AAGUCCUGUGCUACACAUCGUAUGUACCGAAUCGGUUUUUGGUUUUUGGAAAAAGGAAAGUAUUAUGUUACGCCGUUCGGAUCUGCACUU	-1.99
UGAACAGCUCUGCGCUUUUUGUUACUGUGGGGAAAAAAGUUCCUUAGGACAAGGAGACUUAAAACAAUUCAGAAUAACGCCUGGAUUUAU	-1.59
AAGUCCUGUGCUACACAUCGUAUGUACCGAAUCGGGUUUUGGUUUUGGUUUUGGGGAAAGUAUUAUGUUACGCCGUUCGGAUCUGCACUU	-1.5
CCUCAAGUCCUGUGCUACACAUCGUAUGUACCGAAUCGGGUUGGGUUGGUUGGAAAGUAUUAUGUUACGCCGUUCGGAUCUGCACUUCCA	-0.537
GCAGGAAGUAAAAACAAAUGGAAAUGCUUCGGAUAGUGGCAGGGGUGGGGGUUGCUAAGGAAAGGGUGGGAUGGGAGUGCGUAAAGAGUU	1.63
UAACUUUAGAGGAGGAUCUGAUGGAUAUGGCAGUGGACGUGGAUUUCGGGAUGGCUAUAAUGGGUAUGGAGGAGGACCUGGAGGUGGCAA	-0.677
UUGUGAGCUGCAAGCUAGGCUGCAGGCCCAGGAAGAACAGCAUCAGGAAGUCCAGAAGGCAAAAGAAGCAGACAUAGAGAAGCUGAACCA	-1.94
GCAGGAAGUAAAAACAAAUGGAAAUGCUUCGGAUAGAAACAGGGGUGGGGGUUGCUAAGGAAAGGGUGGGAUGGGAGUGGGUAAAGAGUU	1.68
AGUCCUGUGCUACACAUCGUAUGUACCGAAUCGGGGUUUGGGGAAAAAGGGGAGGGGAAAGUAUUAUGUUACGCCGUUCGGAUCUGCACU	2.87

Repeated from above (sample 1):
Variant	normalised enrichment score
I8A	-0.0475
F13A	0.00373
F2A	-0.252
C9A	0.318
F7A	-0.121
